Measurements of several laboratories.
Parts stem from different laboratories: compare values within a part only. Positions count from the first letter of the parent shown.

Set 1 — technique: DHFR PCA, deep sequencing; sample: yeast; together with: (+)-ABA 710 µM; reference: wild-type fitted maximum; reading: higher = stronger binding
Target: ABI1, truncated, D143A, DHFR fusion (Arabidopsis thaliana)
Setting: methotrexate growth selection, single substitutions
Starting sequence: PYL1, truncated, DHFR fusion (Arabidopsis thaliana); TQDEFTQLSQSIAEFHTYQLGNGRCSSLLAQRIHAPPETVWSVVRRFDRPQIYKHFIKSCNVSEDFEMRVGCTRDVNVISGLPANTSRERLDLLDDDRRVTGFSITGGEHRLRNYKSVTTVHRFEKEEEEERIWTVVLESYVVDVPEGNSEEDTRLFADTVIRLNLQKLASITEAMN
Variant | relative binding score [%]
C72L | 94.4
K116D | 12.8
S9P | 92.3
E67Y | 97.8
V145C | 93.8
P146W | 50.7
L169N | 8.27
Q10F | 97.1
S117P | 9.14
E147R | 94.2
V70K | 93.8
S9M | 93.5
Q19T | 107
A170G | 97
A84G | 98.9
D65F | 98
E131R | 108
L156E | 96.3
A13Q | 86
P83H | 56.1
S42T | 98.9
A30Q | 108
T1R | 95.9
M68G | 98.4
I162H | 37.8

Set 2 — technique: RNA Bind-n-Seq; form: RNA; sample: in vitro; concentration: 20 nM; setting: 6-mer, flanks averaged, single round; together with: 150 mM KCl; reference: input library; reading: higher = stronger binding
Target: TAR DNA-binding protein 43, full length, His tag (TARDBP, Homo sapiens, UniProt Q13148, residues 1-414)
Strand | 6-mer enrichment (R)
ACCACC | 0.655
CGAUUU | 0.582
GCUCCG | 0.823
AUUCAG | 0.631
UAUAAC | 0.667
CUUGGA | 0.778
AGAUCC | 0.618
CGUAGG | 1.35
UAGCAC | 0.652
UAGCAG | 0.887
GAUGUA | 0.88
GUGCUC | 0.772
GCGGGG | 8.28
AAAGUA | 0.65
AAGCAU | 0.65
UAUGAU | 0.694
AAGCGU | 0.817
GUAUGG | 1.79
CCUUGU | 0.715
CAUUCG | 0.585
CUGACG | 0.858
CUGAAC | 0.64
UCUAAA | 0.592
GACAGG | 1.96
GAUUCC | 0.592

Set 3 — target: CCND1, cyclin fold, Cln2 fusion (human); technique: yeast growth competition, sequencing; sample: yeast; setting: weak parent motif; reference: not given; reading: higher = stronger binding
Starting sequence: SAMHD1 docking peptide (human); ASKSRVQLFKDDP
Variant | normalised enrichment score
ASKSRHQLFKDDP [V6H] | 0.203
ASKSRQQLFKDDP [V6Q] | -0.46
ASKSRVQWFKDDP [L8W] | -0.0432
ASKSRVQLFKFDP [D11F] | 0.511
ASKLRVQLFKDDP [S4L] | -0.000761
ASKSRVQLFKDCP [D12C] | 0.26
ASKSREQLFKDDP [V6E] | 0.334
ASKSRVQLNKDDP [F9N] | 0.282
ASKSRVQLFKLDP [D11L] | -0.0753
ASKSRVQGFKDDP [L8G] | 0.301
ASKSIVQLFKDDP [R5I] | 1.39
ASKSRVQLFHDDP [K10H] | 0.342
ASKSRVQLFKDAP [D12A] | 0.363
ASKSRFQLFKDDP [V6F] | 0.0976
ANKSRVQLFKDDP [S2N] | 0.205
ASKSRVQLFKDWP [D12W] | 0.06
ASKSRVQLFKNDP [D11N] | 0.323
ASKSRVQLFIDDP [K10I] | 0.654
ASKSRVQLFLDDP [K10L] | 0.81
ASKSRVQLFFDDP [K10F] | 0.502
ASKSRVQKFKDDP [L8K] | 0.233
ASKARVQLFKDDP [S4A] | 1.44
ASKSRYQLFKDDP [V6Y] | 0.267
ASKSRVRLFKDDP [Q7R] | 0.587
ASKSRVQLFEDDP [K10E] | 0.764

Set 4 — technique: RNA Bind-n-Seq; form: RNA; sample: in vitro; concentration: not given; reference: input RNA pool; reading: higher = stronger binding
Target: RING finger protein unkempt homolog, zinc fingers 1-6, GST-SBP tag (UNK, Homo sapiens, UniProt Q9C0B0, residues 30-357)
Sequence of UniProt Q9C0B0 (30-357, looked up): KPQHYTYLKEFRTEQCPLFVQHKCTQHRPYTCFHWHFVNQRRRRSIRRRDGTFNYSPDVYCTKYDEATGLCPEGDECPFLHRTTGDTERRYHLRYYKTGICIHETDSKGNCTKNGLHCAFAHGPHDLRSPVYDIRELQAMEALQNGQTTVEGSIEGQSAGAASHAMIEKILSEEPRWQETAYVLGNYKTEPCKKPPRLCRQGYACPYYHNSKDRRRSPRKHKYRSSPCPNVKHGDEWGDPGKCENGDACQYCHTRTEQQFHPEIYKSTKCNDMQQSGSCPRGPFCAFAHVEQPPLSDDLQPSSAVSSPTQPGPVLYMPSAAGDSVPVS
Setting: RNA with constant flanks, human-mouse chimeric sites, ends assumed
Shared flanks, not repeated: GGGAGUUCUACAGUCCGACGAUC … CAACAGAGGAUUGAGCAUCA
Strand | bound/input enrichment [ratio]
AAAGAGAAACUAAAGCAAACUGAUUGAAAGAGGAUUGGCAAAGAGAAUUUCAUAGAGAAACUAGGAUUUAUUAGCAAACAUGAGUUAGUAUUCCAGACGUCUCAGAAACCCCAGCCAAAC | 1.7
CUGAGGAUACCACUGAAGAGACCUUAAAAGAAUCAUUUGAGGGCUCUCGUUCGGGCAAGGAUAGUUAUGAUCGGGAAACUGGUUCUUCCAAAGGGUUUGGUUUUGUAGACUUUAAUAGUG | 0.979
CACAGAGGCACCACCCCCCCCUCCUCCUUUCCACACCUGCAAACUCUUUUGCCUGGGCUGAAUAUUUAGUGUAAUUACAUCUCAGCUUUGAGGGCUCCUGUGGCAAAUUCCCGGAUUAAA | 1.12
UGGCGCCUGCGCUCCCCACUCGUGUUUGUAUUUUUAUUUUUAUAAGAUACAUGUAUUUACAAUUGAGCUUUUGUUACUAUAAUACUGAAUGCUACUGGAGAUUAUGAAAAAUGUUUCAAU | 0.271
CACAGAGGAGAUCUGCUGUUCCUCACGAAUUUCCGGGAGGACCCCAUCAGAGCUGGUGAAAUAGUUGUUUUUAAGGUUGAAGGACGAGACAUUCCGAUAGUUCACAGAGUAAUCAAAGUU | 3.49
CCCCAAUACCAUUUGCAGGUCUGGAACUGCACUCUCUUUUUUAAAAAAUAUGCAUAUAUUUUAGGGCUGUAGAUUUAUUUUCCUGGUUUCUUUUCCAAUUGCUGACUUUUGAGCACAGAA | 1.47
UACUCAACUUUCUUUCCACAUUUUGAAUUCCAAGACAUUAUUCCUCCAGAUGACUUCCUAACGAGUGAUGAAGAGCAAGAUUUGGUUUUAUUUGGAAGUUUGAGAGGACAAGUUGUUGGA | 0.195
GCGGCAGAAUCAUGGAGGACAUAAUGCACUUGCCCAGAGCGCGCGUCAACGCCAGCAUGUUACCACAGUAUAUCGACAAGCCUGUCUGCUUCGUGGGGAAGCUGGAAAAGAUUCAUCCCA | 0.132

Repeated from above (set 3):
Variant | normalised enrichment score
ASKSRVQLFKFDP [D11F] | 0.511
ASKLRVQLFKDDP [S4L] | -0.000761
ASKSRVQLFKDCP [D12C] | 0.26
ASKSREQLFKDDP [V6E] | 0.334
ASKSRVQLNKDDP [F9N] | 0.282
